Results from different studies.
Each line is one published result; not all experiments were run side by side. Numbers after ± are the reported error.

CC[C@H](C)[C@@H]1NC(=O)[C@H](Cc2ccc(O)cc2)NC(=O)[C@@H](N)CSSC[C@@H](C(=O)N2CCC[C@H]2C(=O)N[C@@H](CC(C)C)C(=O)NCC(N)=O)NC(=O)[C@H](CC(N)=O)NC(=O)[C@H](CCC(N)=O)NC1=O: “AUC above baseline” 206 ± 45 pg·30 min/sample (microdialysis, radioimmunoassay; C57BL/6J male mice, wild type, amygdala extracellular fluid; intranasal, 12 µg, incremental area over baseline).
Oc1ccc(C=Cc2cc(O)cc(O)c2)cc1 gave an AUC of 100 ± 10 ng·h/mL (male ApcMin/+ mice, plasma; oral gavage, 45 µg/kg, together with: BaP 100 µg/kg).
For OCCc1ccc(O)c(O)c1, the AUC was 0.021 ± 0.002 nmol·min/g (C57BL/6J obese male mice, brain; oral, 200 mg/kg, 0 to 12 h).
For CN1CCN(c2ccc(Nc3ncc4cc(C#N)c(=O)n(C5CCCC5)c4n3)cc2)CC1, the AUC was 19800 ng·h/mL (NIH Swiss nude mice, intracerebral U87 tumour, brain; intravenous, 25 mg/kg, together with: gefitinib 200 mg/kg oral 1 h before).
For Cc1cc(-c2cc(OC(=O)c3ccccc3)ccc2Cl)cc2nnc(Nc3ccc(OCCN4CCCC4)cc3)nc12, the AUC was 8.13 µM·h (C57BL/6 mice, sclera and choroid; topical ocular, 1 %, 0 to 24 h).
CC(=O)C=Cc1ccc(O)c(O)c1 has an AUC of 0.15 ± 0.012 nmol·min/g (C57BL/6J obese male mice, brain; oral, 200 mg/kg, 0 to 12 h).
With Cn1ncnc1[C@H]1c2n[nH]c(=O)c3cc(F)cc(c23)N[C@@H]1c1ccc(F)cc1 the AUC was 723 ng·h/mL (female FVB Abcb1/Abcg2 knockout mice, plasma; oral, 0.5 mg/kg, 0 to 4 h, no novobiocin pretreatment).
c1ccc2c(c1)cc1ccc3cccc4ccc2c1c34 gave an AUC of 120 ± 5 ng·h/mL (male ApcMin/+ mice, plasma; oral gavage, 100 µg/kg, together with: RVT 45 µg/kg).
With CCCC1O[C@@H]2C[C@H]3[C@@H]4CCC5=CC(=O)C=C[C@]5(C)[C@H]4[C@@H](O)C[C@]3(C)[C@]2(C(=O)CO)O1 (stereo partly drawn) the AUC was 0.038 µM·h (CD1 mice, plasma; subcutaneous, 0.2 mg/kg).

Some of these lines once more:
For OCCc1ccc(O)c(O)c1, the AUC was 0.021 ± 0.002 nmol·min/g (C57BL/6J obese male mice, brain; oral, 200 mg/kg, 0 to 12 h).
